# Measurements collected from several papers.
# Numbered parts are unrelated; each lists some results of a single study.

# Block 1
# Target: RNA binding protein fox-1 homolog 2, RRM domain, GST-SBP tag (RBFOX2, Homo sapiens, UniProt O43251-10, residues 100-194)
# Method: RNA Bind-n-Seq
# Molecule type: RNA
# Sample: in vitro
# Tested at: 365 nM
# Notes: natural RNA segment, single round, ends assumed
# Baseline: no-protein control
# Reading: higher = stronger binding
# Shared flanks, not repeated: GGGAGUUCUACAGUCCGACGAUC … UGGAAUUCUCGGGUGCCAA
# Construct (chain): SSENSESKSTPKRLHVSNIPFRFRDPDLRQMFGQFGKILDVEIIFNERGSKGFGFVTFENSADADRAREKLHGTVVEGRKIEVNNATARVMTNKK
Oligonucleotide,RBNS enrichment (R)
AUCCAGAGGCAAACGGAGGCAAAGCUGGCUCACCUUCCGCACGCGGAUUAAUUUGCAUCUGAAAUAGGAAACAAGUGAAAGCAUAUGGGUUAGAUGUUGCCAUGUGUUUU,0.59
GAAAAAAAAAGCCACACGAAGUGCAAUAGGGUUGUGCGGCGACUCAUUGAUAUUUCUCUGAUGUGAGAUAGAGCUGUGUGUGUGUGACUGGCUAGCAGCUAUCAGUAUUA,0.979
GGUGGCCCCUGUGGGGUGUCCUGUCACAGCCAUGUCUAUGGAAUCGCAGAGGCGGUGGGAAGGCUGUCAGAGCCUGUGUUCUGAUUUUUCAGAAAACAGGUCUCUCCUUU,0.195
GUAUCUGUGUGUGCCAAUGCUGUUACCACAUCCUGGUGAAGCUAAAAAAUAAAAUUUAAUUUGGACCAAAAGAAUGUUGUUAUUCAUUUGAAAUCCGCGCUGCUUGUCUG,1.13
CCAAAGAAGGCAAAAAGAUAAGAUUUACUCAAGUAGCAUUUGGGCAAUGAGGAAGGAAAGGUUUCAAAUUUAGGGGCAGAAGUGAGAGAAUGAGCCAACCCAUGUACCUG,1.14
UUGGAAAAAACCCUCAAACUAAUAUUCUUGUCUGUUCCAGUCUUAUAAAUAAAACUUAUAAUGCAUGUAUUGUUUUGUUGGUGAGUAUUCAUAGCACUGUUUCGAGAUAA,3.03
GGGUGUCCAGACUCAGAAGGCUUGAUCUGGGUUCCCUGUAAAGAGAGAGUGAAUUUCAGUAUACAGACAGCCUGCUCUACCCACCCCUUCCUUACCACGGCCCACGUAAA,0.772
UUCAUUUCAUUUAGGGACUCUGUGGGGGGAGGGGCAGGCAUUGCAUUCUCACAUGACAUUUCAAUUCAUCUCUACCAAUGAAGAGCGUCCUCCCUGUUGGGAGCAAUCUG,0.638
AAGAAGGCCUCUCUUGCUCCCAAGGGCCCUCACCAGAGGCCAGGGCUGCCAGUCACUGGUCUGGGGGGUGGAGGCCUGAGCUGAGGGCAGGGUGCCUGACCUGUGUGCCG,0.29
UCCUGUUUUUAAAACAGUUUUUCAAGAUAUUAUUGCUUAAUAUGUUCAUUAUUGAUGUUUUUAUAGUGAUCCAGCCACUCUAGCUUUAAGAAUAGCUAGGUUGUAUUAAA,1.28
CUCUUUUUAGUUAAUAUACCAAAGCUUAUGAAUAAUUGUUUGUUAAUUGAACAUUUUCAAUUAUAUGCAGACUGACUGAUUCUAAGAUAAAUUCUAAGGAGGUUUCUAAU,0.457
CAGCCCUGAGCGUGCUGAGUUCUGUGUUUCUCUGAAUAGAGGUGUGGAACCUGAGGGGCCAGCAGGCCUCUCUGAAGGCCUCCAUGGAGCAAACGGAGCCACCUCGGGAA,0.3

# Block 2
# Target: Sal-like protein 4, full length isoform A (SALL4, Homo sapiens, UniProt Q9UJQ4, residues 1-1053)
# Chain of UniProt Q9UJQ4 (whole entry, looked up): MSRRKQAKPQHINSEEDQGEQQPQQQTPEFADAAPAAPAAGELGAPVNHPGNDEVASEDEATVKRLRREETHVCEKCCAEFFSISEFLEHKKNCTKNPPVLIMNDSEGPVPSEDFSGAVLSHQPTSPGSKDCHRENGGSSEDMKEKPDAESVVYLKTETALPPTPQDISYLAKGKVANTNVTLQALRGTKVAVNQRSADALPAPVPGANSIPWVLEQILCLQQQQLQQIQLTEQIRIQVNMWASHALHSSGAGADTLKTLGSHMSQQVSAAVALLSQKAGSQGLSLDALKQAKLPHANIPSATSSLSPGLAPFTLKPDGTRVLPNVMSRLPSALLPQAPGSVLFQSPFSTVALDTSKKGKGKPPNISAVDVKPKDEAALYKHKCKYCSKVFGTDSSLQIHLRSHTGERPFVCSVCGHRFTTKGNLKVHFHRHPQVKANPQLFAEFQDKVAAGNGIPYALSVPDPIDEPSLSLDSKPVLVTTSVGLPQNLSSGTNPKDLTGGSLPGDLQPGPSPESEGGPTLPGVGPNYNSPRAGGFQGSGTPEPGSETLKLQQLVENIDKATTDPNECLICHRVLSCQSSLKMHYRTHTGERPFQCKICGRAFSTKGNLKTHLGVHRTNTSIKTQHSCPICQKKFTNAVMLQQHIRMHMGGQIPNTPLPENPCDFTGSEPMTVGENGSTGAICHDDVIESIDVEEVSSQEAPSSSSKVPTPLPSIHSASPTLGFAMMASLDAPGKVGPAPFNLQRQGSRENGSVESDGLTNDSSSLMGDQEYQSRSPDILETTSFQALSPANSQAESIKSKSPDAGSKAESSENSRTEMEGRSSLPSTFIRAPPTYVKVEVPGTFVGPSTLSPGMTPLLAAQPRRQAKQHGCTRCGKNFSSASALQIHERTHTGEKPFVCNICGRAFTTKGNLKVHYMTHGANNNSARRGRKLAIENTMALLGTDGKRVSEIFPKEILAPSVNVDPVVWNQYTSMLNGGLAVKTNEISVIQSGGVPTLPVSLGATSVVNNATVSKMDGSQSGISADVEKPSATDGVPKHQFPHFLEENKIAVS
# Method: universal PBM
# Molecule type: double-stranded DNA, one strand shown
# Sample: in vitro
# Tested at: 600 nM
# Notes: 8-mer, flanks averaged, mean of replicates
# Reading: higher = stronger binding
Oligonucleotide,E-score
GGATCTAA,-0.0167
CCCAGGCC,-0.434
ATGAGCGG,-0.0854
TGACGGCA,-0.0954
ATTGTGAC,0.0323
AAGTTGCT,-0.0341
ATGAATGA,0.305
CAGCAGCC,-0.287
ATGAGATC,0.106
CTAATAAC,0.344
CCTAGGCC,-0.239
CCTGATCG,-0.206
TGCTAAAA,0.101
ATTCAGGC,-0.0411
CTACGTAC,0.13
CGAGACCG,-0.271
GGTGCGGA,-0.163
CCGAGGAA,-0.297
GTGGGACA,-0.172
CTGCGGCA,-0.175
ACTTGGAA,0.0398
AGAGAGTC,-0.0987
CCTTAACC,-0.1

# Block 3
# Target: RING finger protein unkempt homolog, zinc fingers 1-6, GST-SBP tag (UNK, Homo sapiens, UniProt Q9C0B0, residues 30-357)
# Method: RNA Bind-n-Seq
# Molecule type: RNA
# Sample: in vitro
# Tested at: not given
# Notes: RNA with constant flanks, human and mouse sites, ends assumed
# Baseline: input RNA pool
# Reading: higher = stronger binding
# Shared flanks, not repeated: GGGAGUUCUACAGUCCGACGAUC … CAACAGAGGAUUGAGCAUCA
# Residues (chain): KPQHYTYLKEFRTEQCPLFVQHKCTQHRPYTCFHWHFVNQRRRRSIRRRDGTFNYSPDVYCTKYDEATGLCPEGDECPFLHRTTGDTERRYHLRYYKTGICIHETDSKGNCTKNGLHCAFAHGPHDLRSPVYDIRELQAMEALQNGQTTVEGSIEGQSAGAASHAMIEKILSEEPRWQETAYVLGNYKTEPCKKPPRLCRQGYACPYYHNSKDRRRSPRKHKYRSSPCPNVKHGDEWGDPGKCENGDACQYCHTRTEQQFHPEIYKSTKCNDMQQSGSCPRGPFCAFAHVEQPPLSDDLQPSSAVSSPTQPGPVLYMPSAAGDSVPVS
Oligonucleotide,bound/input enrichment
UAGUCCUCCAAGAAGAAAGCACCAAGACAACAUUUCAUAUGACUAUAAUGCAUGUACUAUAUAAGCUGAUCUGGCUUUGAAAGAUGUGAGUUGGCAAGUUCCUCACAUAGAGUCAUUGUA,0.234 ratio
CCUUGUUCACUGGAUUGUCUGGGGUGACUUGGGCUCAUAUCCACAAUAUUUGGUAUACGGUAGUAGGUUGGUGGGGGUGGGGGUGGGGAGCUAGGAUAUAGGGCAGGGAUACAUACAGUU,25.8 ratio
UGCUGCUUCUGGCUGGCUGGCCUGGCUGUCAUGGCAGUGGGCAUCUGGACGCUGGCCCUCAAGAGUGACUACAUCAGCCUGCUGGCCUCAGGCACCUACCUGGCCACAGCCUACAUCCUG,0.0723 ratio
UCCGAAUGAUCGAGUUGUGGCGGGCUUUGAGAUGUCAGAGGAUUUAGCAAAGCAGCUGGCAAGCUACAAAGCUCAGCUCCAGCAAGUUGAAGCUGCAUUAUCUGGAAAUGGAGAAAAUGA,0.241 ratio
UAAUAUGUUAGUAAGUUACAUUUUAAAUAAUGCUCAUGUGACAAUACUCCCAAUCAAUGGCUUAUAGAAUUUAAAGAUCUGUAUAUUAGAUUUUGGCUUAAAGGCAUGAGAAGUAUAAGA,4.24 ratio
AUGCUGGGCAAGCGACCUCGGAGAAAGAGCAGUCGUAGAAAGAAGGCCGUGUCUGCCCCAGCCGGCUAUCCAGAGGGGUCCGUGAUUGAGGCCUGGGUGGCCGAAGAGGAAGAUGAUAAC,0.29 ratio
ACAGGAACAGGGCAGACGUUAGCGUGAGUGAUCACUCUCAAUCCCGGGGACCUGGUGGCCUUAGUCUUUCAGGUGGAACGGUGUGCGACAUGGGAAAGAAAACCAAGCGGACAGCUGACA,0.356 ratio
CAGUGACUGUUCACAUGCCCAAAGUUGUGCUGAAUAUGAACCUGACACCAACGCAAGGCAGCUAUACAUUUGAUCCCGUGACCAAGGUACUAGCAUGGGAUGUGGGCAAAAUUACUCCAC,0.1 ratio
ACACAAAUGUACCCUUACUCCAGUCUGUCCCUCACCUCCAUUGUCUAAGGUAUUGGACUUAGAUGCUUAUGUGUAAUAUGUUGAACCUGUCAGUUGCUGUCUUUUUCCUUCUUCGCAUUU,0.237 ratio
AUUGCAACAAAUGGAGAAAGUGCUGUAGUGCAAUUACCAAAAAAUGGCCCCAUUUAUGAUGUAGUUUGGAAUUCUAGUUCUACUGAGUUUUGUGCUGUAUAUGGUUUUAUGCCUGCCAAA,0.367 ratio
GGGCCCUGGAAGCUGACGGCGUCCAAGACCCACAUCAUGAAGUCGGCGGAUGUGGAGAAAUUAGCCGAUGAAUUACAUAUGCCAUCUCUCCCUGAAAUGAUGUUUGGAGACAACGUUUUA,0.183 ratio

# Block 4
# Target: Fragile X messenger ribonucleoprotein 1, C-terminal low-complexity region (Fmr1, Mus musculus, UniProt P35922)
# Method: RNA Bind-n-Seq
# Molecule type: RNA
# Sample: in vitro
# Tested at: 200 nM
# Notes: whole 134-nt RNA, ends assumed
# Added: 150 mM KCl
# Baseline: input library
# Reading: higher = stronger binding
# Shared flanks, not repeated: GGGAGUUCUACAGUCCGACGAUC … UGGAAUUCUCGGGUGUCAAGG
Oligonucleotide,log2 enrichment
UCCUCAAGUCCUGUGCUACACAUCGUAUGUACCGAAUCGGCGGCGGGGCGGGAAAGUAUUAUGUUACGCCGUUCGGAUCUGCACUUCCAG,0.427
UGGCCCUGGUGGCAUGCGGGGAGGAAGAGGUGGCCUCAUGGAUCGUGGUGGUCCCGGUGGAAUGUUCAGAAGUGGCCGUGGUGGAGACAG,0.197
GUCCUGUGCUACACAUCGUAUGUACCGAAUCGGGGUUUGGGGAAAGGGGUUUUUGGGGAAAGUAUUAUGUUACGCCGUUCGGAUCUGCAC,0.433
CCUGUGCUACACAUCGUAUGUACCGAAUCGGGCCCCCCCGGGGCCCCCCCGGCCCCCCCGGAAAGUAUUAUGUUACGCCGUUCGGAUCUG,-0.66
CUCAAGUCCUGUGCUACACAUCGUAUGUACCGAAUCGGGGUUGGGUUGGGUUGGAAAGUAUUAUGUUACGCCGUUCGGAUCUGCACUUCC,0.461
UUUUCAAAAUAAGGAGCUUCCCAGACCUGUGUUAGAAGGGCAGCAGUCAGAGAGGACCCCAAAUAAUCGCCCUGAUGCCCCUAAGGAGAA,-0.623
UAACUUUAGAGGAGGAUCUGAUGGAUAUGGCAGUGGACGUGGAUUUGGGGAUGGCUAUAAUGGGUAUGGAGUAGGACCUGGAGGUGGCAA,0.179
CCUGUGCUACACAUCGUAUGUACCGAAUCAAAUUUUUUUAAAUUUUUAAACCCCCCCAAAAAAGUAUUAUGUUACGCCGUUCGGAUCUGC,0.141
GCAGGAAGUAAAAACAAAUGGAAAUGCUUCGGAUAGUGGCAGGGGUGGGGGUUGCUAAGGAAAGGGUGGCAUGGGAGUGGGUAAAGAGUU,0.293
AAGUCCUGUGCUACACAUCGUAUGUACCGAAUCGGGGAGGGGAGGGGAAAAAGGGGAAAGUAUUAUGUUACGCCGUUCGGAUCUGCACUU,0.862
